Published values gathered from unrelated publications.
Protocols differ between the studies behind these lines. Numbers after ± are the reported error.

With [Cl][Pd-2]1([Cl])[N+](=P(c2ccccc2)(c2ccccc2)C2C=CC=C2)Cc2cccc[n+]21.[Cl][Pd-2]1([Cl])[N+](=P(c2ccccc2)(c2ccccc2)C2C=CC=C2)Cc2cccc[n+]21.[Fe+2] the IC50 was 1.8 ± 0.7 µM (A2780cisR (cisplatin-resistant); cell growth, MTT; 74 h, 1% DMSO).
For CC(=O)[O-].O.O.O.O.[Ni+2].[O-]c1ccc(Br)cc1C=NCCN1CCOCC1, the IC50 was 59.2 mg/L (NHDF normal fibroblasts; cell viability, MTT; 72 h).
C=CCc1ccc(O)c(-c2cc(CC=C)ccc2OCCCCCCCCCC[P+](c2ccccc2)(c2ccccc2)c2ccccc2)c1 has an IC50 of 0.3 µM (UACC-62; cell growth, IncuCyte confluence).
COc1cc(OC)c(F)c(/C=C/c2cnc3ccn(S(=O)(=O)c4cn(CCF)cn4)c3n2)c1F gave an IC50 of 0.0748 µM (SNU-16; cell growth or viability).
The IC50 of Cc1ccc2oc(-c3c4c(N)n[nH]c(=O)c4nn3-c3ccc(NC(=O)/C=C/CN4CCOCC4)cc3)c(C)c2c1 is reported as 0.0757 µM (SNU-16; cell growth or viability).
For O=C1c2ccc3c4cccc5cccc(c6ccc(c2c36)C(=O)N1CCN1CCCCC1)c54, the IC50 was 280 µM (human PBMC; cell growth or viability, SRB; 72 h).
With C=C(C)C(=O)Nc1ccc(-c2c(-c3ccc(Oc4cccc(C)n4)cc3)c3c(N)ncnc3n2C)cc1 the IC50 was 0.0036 µM (SNU-16; cell growth or viability, ATP luminescence; 96 h).
O=C(N=P12CN3CN(CN(C3)C1)C2)c1cccc[c]1[Pd][Br].O=S(=O)([O-])c1cccc(P(c2cccc(S(=O)(=O)[O-])c2)c2cccc(S(=O)(=O)[O-])c2)c1.[Na+].[Na+].[Na+] has an IC50 of over 500 µM (human PBMC; cytotoxicity, MTT; 24 h, 1% DMSO).
Brc1ccc(Nc2nc(NN=Cc3c[nH]c4ccccc34)nc(N3CCOCC3)n2)cc1 has an IC50 of 0.1 to 0.4 µM (A549 and SK-BR-3; cell growth; 120 h).
CCCCCCCCCC(=O)N[C@@H](Cc1ccccc1)C(=O)N[C@@H](Cc1ccccc1)C(=O)N[C@@H](Cc1ccccc1)C(=O)N[C@@H](Cc1ccccc1)C(=O)N[C@@H](CCCCN)C(=O)N[C@@H](CCCCN)C(=O)N[C@@H](CCCCN)C(=O)N[C@@H](CCCCN)C(=O)N[C@@H](CCCCN)C(N)=O gave an IC50 of 27.5 mg/L (HCEC; cytotoxicity).
CC(=O)Oc1ccccc1C(=O)[O][Pt]([NH2])([NH2])([Cl])([Cl])[O]C(=O)C(Cl)Cl has an IC50 of 1.66 ± 0.09 µM (C13 cisplatin-resistant; cytotoxicity, MTT; 72 h).
The IC50 of CC1=CC(C)=[N+]2C1=C(CO)c1c(C)cc(C)n1[B-]2(F)F is reported as 5 ± 1 µM (RPE-1; cell viability, resazurin; 0.1667 h, 510 nm irradiation 2.44 J/cm2).
The IC50 of COc1cccc(Cc2cc(CCC(=O)NCCNc3cccc4c(S(=O)(=O)O)cccc34)nn(CC(=O)Nc3ccc(Br)cc3)c2=O)c1 is reported as 0.00016 ± 4.3e-05 µM (human neutrophils; calcium flux, antagonist; 10 min preincubation, added: fMLF 5 nM).
COC(=O)[C@@]1(C)C=C(C(=O)NCc2cccc(C(=O)Nc3ccc(Nc4nccc(-c5cccnc5)n4)c(C)c3)c2)C(=O)CC1 gave an IC50 of 0.747 ± 0.247 µM (SH-SY5Y MKK7-ACT; c-Jun phosphorylation, inhibitor, HTRF, measured: phospho-c-Jun Ser63; 6 h, added: doxycycline).
C1=[N+]2CCCC[N+]3=Cc4ccc5[n]4[Au-]23[n]2c1ccc2-c1nc2ccccc2nc1-5.F[P-](F)(F)(F)(F)F has an IC50 of 16 µM (prostate cancer cell lines; NCI60 panel mean).
O=[N+]([O-])c1ccc(C=[N+]2N=C(Nc3ccccc3)[S][Pt-]2([Cl])[Cl])s1 has an IC50 of 7.5 µM (CRFK; cell growth or viability).
With C=CC(OC(C)=O)c1cc(OC)c(OC(C)=O)c(OC)c1 (stereo not drawn) the IC50 was over 50 µM (EJ-28; MTT; 24 h).
The IC50 of [Cl][Pt-]1([Cl])[S]C(Nc2ccccc2)=N[N+]1=Cc1ccc(-c2ccccc2)s1 is reported as 65 µM (CRFK; cell growth or viability).
The IC50 of C=C1C(=O)C23CCC4C(C)(C)CCCC4(C)C2C(O)CC1C3 (single isomer, unassigned) is reported as 4.9 µM (786-0; cell growth or viability, MTT).
For CC1OC(OCC2OC(Oc3cc(O)c4c(=O)cc(-c5ccc(O)c(O)c5)oc4c3)C(O)C(O)C2O)C(O)C(O)C1O (stereo not drawn), the IC50 was over 100 µM (AML12; cell growth or viability, resazurin; 72 h).
The IC50 of Cc1c(C)c(C)[c-](C)c1C.OCc1c[c-]c(-c2ccccn2)cc1.[Cl-].[Ir+3] is reported as over 50 µM (A2780 cells; cell growth, SRB; 24 h exposure, 72 h recovery).
